Measurements collected from several papers.
Compare with care: the assays were run in different laboratories. Several values in a cell are separate wells, animals, samples, runs or records. ± marks the error that the study gave.

Compound | test | test system | conditions | how to read | measurement | result
COc1ccc([C@@H](O)c2cc(-c3ncnc4cc(N5CCOCC5)ccc34)c(F)cc2Cl)nn1 | – | locally advanced rectal cancer | all dose levels overall, with: capecitabine and radiotherapy | – | TEAE, investigations | 53%
CCOc1c([C@H](C)n2nc(C)c3c(N)ncnc32)cc(Cl)c(F)c1[C@@H]1CNC(=O)C1 | item: QTcF change ≤30 ms | previously treated B-cell malignancy | oral, 15 mg once daily, baseline QTcF ≤450 ms | reference: baseline | ECG observations | 100%
Cn1cc(Nc2nccc(-c3ccc4c(c3)CN(C3COC3)CC[C@H]4NC(=O)c3cn(C(C)(C)C)nn3)n2)cn1 | – | human, whole blood | 150 mg twice daily, day 7 | reference: pre-dose baseline | monocyte count change | -2.15%
COc1cc(C(=O)NC2CCN(C)CC2)c(F)cc1Nc1ncc(C(F)(F)F)c(Oc2cccc3c2C(=O)N(C)C3)n1 | – | human patients, plasma | oral, 25 mg once daily repeated, median | – | Tmax at steady state | 2.48 h
Cc1ccc([C@@H]2O[C@H](CO)[C@@H](O)[C@H](O)[C@H]2O)cc1Cc1ccc(-c2ccc(F)cc2)s1 | – | Japanese type 2 diabetes patients | 100 mg, day 3, 24 h urine collection | reference: baseline | urinary sodium excretion change | 29.5 mEq
Cc1cc([C@@H](C)Nc2ccccc2C(=O)O)c2nc(N3CCC(F)(F)CC3)c(C#N)c(=O)n2c1 | – | NOD-SCID mice, HCC1954 xenograft | intraperitoneal, 120 mg/kg once daily, 8 h | – | concentration | 1100 ng/mL
CC(C)CCC[C@@H](C)[C@H]1CC[C@H]2[C@@H]3C(O)CC4=CC(=O)CC[C@]4(C)[C@H]3CC[C@]12C (some centres unmarked) | – | human, plasma | endogenous baseline diurnal | – | Cmin | 35 ± 9 nM
CC(C)(C(=O)N1CCOc2c(C#N)cncc2C1)C(F)F | – | healthy humans, both sexes, plasma | oral, 40 mg single dose, 1.33-fold dose increase | reference: 40 mg over 30 mg | Cmax dose proportionality ratio | 1.33
Cc1c(C(=O)O)ccc2c3n(nc12)[C@@H]1[C@H](C3)N(CC2CC2)[C@@]2(C(=O)Nc3cc(Cl)ccc32)[C@H]1c1cccc(Cl)c1F | – | human patients phase Ia | oral, dose not given, all grades, all patients | – | decreased appetite incidence | 40.7%
O=C(NO)c1ccc(CN(c2cnccn2)c2cnccn2)cc1 | item: decreased appetite | human | oral, dose not given, all dose cohorts, sample B patients | – | patients with adverse event | 20%
CC(=O)O[C@H]1C(=O)[C@@]2(C)[C@H]([C@H](OC(=O)c3ccccc3)[C@]3(O)C[C@H](OC(=O)[C@H](O)[C@@H](NC(=O)c4ccccc4)c4ccccc4)C(C)=C1C3(C)C)[C@]1(OC(C)=O)CO[C@@H]1C[C@@H]2O | – | patients with advanced solid tumours | intravenous, dose not given, phase Ib, not related to compound | – | adverse events, any | 6%
N#Cc1ccc2c(c1)[C@H]1CCCN(C(=O)c3ccc4[nH]cnc4c3)[C@H]1C2 | – | human | 20 mg, day 15 | – | median ACTH level | 7.9 pmol/L
O=C(COc1ccc(Cl)cc1)NC12CC(c3nnc([C@H]4C[C@@H](OC(F)(F)F)C4)o3)(C1)C2 | item: abnormal haematology test | healthy humans, both sexes | oral, 15 mg, single ascending dose | reference: subjects | treatment-emergent adverse events | 16.7%
O=c1[nH]c(=O)n([C@H]2C[C@H](O)[C@@H](CO)O2)cc1CCCCC[18F] | – | male CD-1 nu/nu mice, RG2 tumour, lung | intravenous, dose not given, 2 h | – | biodistribution | 0.19 ± 0.03 %ID/g
CCN1/C(=C/C(C)=O)Sc2ccc(F)cc21 | – | cynomolgus monkey | oral, 100 mg/kg, 6 h post-dose | – | systolic blood pressure | 117 ± 8 mmHg
C[C@H]1OC[C@H](c2cnn(C)c2)N[C@@H]1c1ccc(F)cc1Cl | shake-flask, LC-HRMS | aqueous buffer | 16 h, pH 6.8 | – | solubility | > 750 µM
Cc1cccc(CNC(=O)c2cn(CCNC(=O)c3ccccc3Sc3c([N+](=O)[O-])ncn3C)c3cc4c(cc3c2=O)OC(F)(F)O4)n1 | – | Sprague-Dawley rat, male, whole blood | intramuscular, 3 mg/kg of parent drug | – | MRT(0-inf) | 3.27 h
Brc1cccc([C@H]2COC[C@@H](c3cnc(-c4ccccc4)nc3)N2)c1 | shake-flask, LC-HRMS | aqueous buffer | 16 h, pH 6.8 | – | solubility | < 4 µM
CNC(=O)c1cc(Oc2ccc(NC(=O)Nc3cc(C(C)(C)C)nn3-c3ccc4ncccc4c3)c(F)c2)ccn1 | item: worst grade 2 | human | oral, dose not given, cycles 1 and 2, Low Cmax subgroup | – | patients with nervous system disorder AE | 6%
CNC(=O)c1cc(Oc2ccc(NC(=O)Nc3ccc(Cl)c(C(F)(F)F)c3)c(F)c2)ccn1 | – | mouse plasma | 750 ng/mL, 8 h, room temperature | – | short-term stability accuracy | 100%
Cc1[nH]c(C)c(S(=O)(=O)Nc2ccc(C(F)(F)F)c(Cl)c2)c1C(=O)N1CCC(F)(F)C1 | – | mouse, brain | intraperitoneal, 40 mg/kg | – | AUC(0-t) | 17600 ng·h/g
C=CC[C@@H]1/C=C(\C)C[C@H](C)C[C@H](OC)[C@H]2O[C@@](O)(C(=O)C(=O)N3CCCC[C@H]3C(=O)O[C@H](/C(C)=C/[C@@H]3CC[C@@H](O)[C@H](OC)C3)[C@H](C)[C@@H](O)CC1=O)[C@H](C)C[C@@H]2OC | – | Wistar Kyoto rat, male, plasma | ip, 0.5 mg/kg/day, day 18 | – | plasma Cl− level | 99 ± 1 mmol/L

Compound | test | test system | conditions | how to read | measurement | result
CCO[C@H]1CCN(Cc2c(OC)cc(C)c3[nH]ccc23)[C@H](c2ccc(C(=O)O)cc2)C1 | – | PNH patients, active haemolysis | oral, 200 mg, 8 weeks, treatment | – | incidence of haematuria | 0%
CC/C=C\C/C=C\C/C=C\C/C=C\C/C=C\C/C=C\CCC(=O)O.Cc1cc(/C=C/C#N)cc(C)c1Nc1ccnc(Nc2ccc(C#N)cc2)n1 | – | aqueous buffer | pH 4.5 | – | equilibrium solubility | 0.29 ± 0.01 µg/mL
Cc1ccc(C)c(OCCCC(C)(C)C(=O)O)c1 | – | human, plasma | oral, dose not given, day 12 predose, median | – | trough plasma concentration | 1680 ng/mL
C[Si](C)(C)O[Si](C)(C)C | – | 1-octanol/air | 25 °C | – | log KOA | 2.89
Cc1ccc(C(=O)N(CCCN)C(c2nc3snc(C)c3c(=O)n2Cc2ccccc2)C(C)C)cc1 (centres unmarked) | – | human patients | intravenous, 18 mg/day | – | grade ≥3 hyperbilirubinemia patients | 0%
CCOC(=O)N1C[C@@H](c2sc(N(C)C)nc2C)N[C@@H](c2ccc(F)c3ccccc23)C1 | shake-flask, LC-HRMS | aqueous buffer | 16 h, pH 6.8 | – | solubility | < 4 µM
CC(C)c1nc(CN(C)C(=O)N[C@@H](CCN2CCOCC2)C(=O)N[C@H](CC[C@H](Cc2ccccc2)NC(=O)OCc2cncs2)Cc2ccccc2)cs1 | – | human | oral, 150 mg, drug interaction trial | – | any TEAE | 38.5%
CNC(=O)c1ccc(-c2cnc3ncc(Cc4ccc5ncccc5c4)n3n2)cc1F | item: Diarrhea | cancer patients | oral, 600 mg twice daily, all expansion cohorts, grade 3-4 | – | patients with adverse event | 0%
CCCC1CCC(c2ccc(OCC)c(F)c2F)CC1 (centres unmarked) | – | rat, placenta | 10 ng/mL in perfusate, low dose, mixture of 21 LCMs | – | placental accumulation | 2.5 ± 1.76 ng/g
CCO[C@H]1CCN(Cc2c(OC)cc(C)c3[nH]ccc23)[C@H](c2ccc(C(=O)O)cc2)C1 | – | healthy volunteers, plasma | oral, 200 mg single dose, median | – | total Tmax | 2.5 h
Cc1coc([C@H]2C[C@H]3[C@@H](CF)SC(N)=N[C@@]3(c3ccc(F)cc3F)CO2)n1 | – | male 129/SVE mouse, CSF | subcutaneous, 80 mg/kg, 3 h | – | CSF concentration | 189 nM
Cc1ccc(Sc2ccccc2N2CCNCC2)c(C)c1 | item: Dizziness | healthy adult men | oral, 5 mg daily, 12 days | – | participants with TEAE | 0%
CCN1CCN(Cc2ccc(NC(=O)c3ccc(C)c(NC(=O)c4cncc(-c5cccs5)c4)c3)cc2C(F)(F)F)CC1 | LC-MS/MS | C57BL/6 mouse, plasma | intraperitoneal, 10 mg/kg single dose, 24 h | – | plasma concentration | 8 ng/mL
CCn1cc(C(=O)N2CCOCC2)c(=O)c2cc(NC3Cc4ccccc4C3)cnc21 | – | human, GAD, PTSD or social anxiety disorder | dose not given, TEAE Diarrhea, pooled phase trials | – | patients with adverse event | 4.4%
Cc1cc(NC2CCN(C(=O)OC3CCN(C(=O)/C=C/CN(C)C)C3)CC2)n2ncc(C(C)C)c2n1 (centres unmarked) | Phase I dose escalation CTCAE v4.0, item: decreased appetite | patients with advanced solid tumours | dose not given, TIW dosing any grade | – | patients with adverse event | 18%
Cc1nc(-c2ccc(OCC(C)C)c(C#N)c2)sc1C(=O)O | – | human, plasma | oral, 20 mg, with: verinurad 2.5 mg | reference: test over reference | geometric mean ratio AUC(0-24) | 99.2
NC[C@@H]1O[C@H](O[C@H]2[C@@H](O)[C@H](O[C@@H]3[C@@H](O)[C@H](N)C[C@H](N)[C@H]3O[C@H]3O[C@H](CO)[C@@H](O)[C@H](O)[C@H]3N)O[C@@H]2CO)[C@H](N)[C@@H](O)[C@@H]1O | – | NSG mice | dose not given, day 2 of treatment | – | body weight | 20.4 g and 21.3 g and 23.4 g and 23.6 g and 22.2 g and 22 g and 22.4 g and 22.7 g
CN(C)C/C=C/C(=O)Nc1cc2c(Nc3ccc(F)c(Cl)c3)ncnc2cc1O[C@H]1CCOC1 | – | water | 24 h, with: SBE-β-CD 200 mM | reference: with over without SBE-β-CD | solubility enhancement | ~37 fold
Cc1c(-c2ccc(N3CCc4cccc(C(=O)Nc5nc6ccccc6s5)c4C3)nc2C(=O)O)cnn1CC12CC3(C)CC(C)(C1)CC(OCCNCC[C@H](O)CO)(C3)C2 | – | anaesthetized male beagle dog | iv infusion, 0.01 mg/kg/min, 180 min | – | plasma concentration | < 2 ng/mL
N#Cc1ccc([C@H]2COC[C@@H](C3CC3)N2)cc1 | shake-flask, LC-HRMS | aqueous buffer | 16 h, pH 6.8 | – | solubility | > 750 µM
C[C@H](CCC(=O)NCC(=O)O)[C@H]1CC[C@H]2[C@@H]3[C@H](O)C[C@@H]4C[C@H](O)CC[C@]4(C)[C@H]3CC[C@]12C | – | human, plasma | control | – | Cmin | 84.8 ± 16.8 nM
NC1(C(=O)N[C@@H](CCO)c2ccc(Cl)cc2)CCN(c2nc[nH]c3nccc2-3)CC1 | – | metastatic CRPC patients | 320 mg b.i.d., any grade, treatment-related, with: enzalutamide 160 mg daily | – | incidence of Nausea | 66.7%
